Measurements from different studies.
Each numbered part is a random draw from the data of one study; scales do not carry over between parts. Substitutions count along the parent as printed.

Block 1
Target: ABI1, truncated, D143A, DHFR fusion (Arabidopsis thaliana)
Method: DHFR PCA, deep sequencing
Matrix: yeast
Notes: methotrexate growth selection, single substitutions
Together with: (+)-ABA 0.032 µM
Relative to: wild-type fitted maximum
Reading: higher = stronger binding
Parent: PYL1, truncated, DHFR fusion (Arabidopsis thaliana); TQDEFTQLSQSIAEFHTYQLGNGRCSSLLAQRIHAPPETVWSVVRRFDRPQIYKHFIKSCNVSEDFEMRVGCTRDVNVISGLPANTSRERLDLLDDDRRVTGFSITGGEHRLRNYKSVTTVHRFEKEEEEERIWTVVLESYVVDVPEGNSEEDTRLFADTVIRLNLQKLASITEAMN; partner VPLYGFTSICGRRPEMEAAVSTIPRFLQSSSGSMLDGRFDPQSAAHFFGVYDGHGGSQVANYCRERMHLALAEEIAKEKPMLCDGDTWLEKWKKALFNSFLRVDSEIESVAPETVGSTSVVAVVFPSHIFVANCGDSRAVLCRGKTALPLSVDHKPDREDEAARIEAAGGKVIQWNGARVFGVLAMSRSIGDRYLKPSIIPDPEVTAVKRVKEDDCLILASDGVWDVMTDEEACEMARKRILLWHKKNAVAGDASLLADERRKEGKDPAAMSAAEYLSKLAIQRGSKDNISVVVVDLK
Variant | relative binding score [%]
S87D | 3.88
K54R | 15.1
P146N | -4.13
Q19M | 3.08
R99W | 67.8
N149S | 56.5
R111L | 4.05
L82Q | 10.8

Block 2
Target: Protein max, full length (MAX, Homo sapiens, UniProt P61244-2, residues 1-151)
Method: protein-binding microarray
Form: double-stranded DNA, one strand shown
Matrix: in vitro
Concentration: not given
Notes: k-mer, scored over probes, only values ≥0.25
Reading: higher = stronger binding
Sequence | E-score
CAACATGG | 0.302
GCACGCGC | 0.438
GCTCGTGA | 0.268
GCATATGC | 0.364
CCAGCACG | 0.351
ACGTGCTA | 0.451
CGCGTGAC | 0.462
AAGCGTGC | 0.42

Block 3
Target: TAR DNA-binding protein 43, full length, His tag (TARDBP, Homo sapiens, UniProt Q13148, residues 1-414)
Method: RNA Bind-n-Seq
Form: RNA
Matrix: in vitro
Concentration: 20 nM
Notes: 6-mer, flanks averaged, single round
Together with: 150 mM KCl
Relative to: input library
Reading: higher = stronger binding
Sequence | 6-mer enrichment (R)
CUGUUA | 0.615
AAGCGA | 0.799
GGAGGG | 10.8
UACGCA | 0.672
UGUCUA | 0.609
UAUCAA | 0.572
GUCUAA | 0.641
CCAAUU | 0.633

Mixed results
Compound | method | species | dose | notes | measurement | value
CC(C)n1cnc(-c2ccc(F)cc2)c1-c1ncc(C(=O)Nc2ccc(N3CCN(C)CC3)cc2)[nH]1 | phase 2a trial | idiopathic pulmonary fibrosis patients | 60 mg once daily | adverse event grade 4 | patients with cardiac disorders | 0%

Some of these lines once more (block 2):
Sequence | E-score
CCAGCACG | 0.351
GCACGCGC | 0.438
CAACATGG | 0.302
